Measured values gathered from unrelated publications.
Each line is one published result; not all experiments were run side by side. ± gives the spread as reported.

SMILES	target or system	assay	test system	conditions	scale	quantity	value
CCCCCC(=O)OCn1cc(F)c(=O)[nH]c1=O	–	–	Sprague-Dawley rat, rat intestinal homogenate	80 µg/mL, 37 °C	–	half-life	< 4.98 min
COc1ccc(CNc2ccc(-c3ccn4c(CC5CC5)nnc4c3C(F)(F)F)cc2F)cn1	–	–	rat Sprague Dawley male, brain	subcutaneous, 10 mg/kg, 1 h	–	brain concentration	730 ng/g
CC[C@H](C)[C@@H]1NC(=O)[C@H](CC(C)C)NC(=O)[C@H](Cc2ccccc2)NC(=O)[C@H](Cc2ccccc2)NC(=O)[C@@H]2CCCN2C(=O)[C@@H]2CCCN2C(=O)[C@H](C(C)C)NC(=O)[C@H](CC(C)C)NC(=O)[C@H]([C@@H](C)CC)NC1=O	A-375	LDH release	–	500 µM, 48 h	reference: DMSO	cytotoxicity	56%
CC(C)C[C@H](NC(=O)OCc1ccccc1)C(=O)N[C@@H](C[C@@H]1CCNC1=O)C(O)S(=O)(=O)O (some centres unmarked)	feline coronavirus	–	CRFK, FIPV-1146	–	reference: CC50 over EC50	therapeutic index	> 3000
CCCCn1ccn2c(-c3ccc(Oc4ccnc(C)c4)c(F)c3)c(C)nc2c1=O	–	–	male Sprague Dawley rat	oral, 10 mg/kg, 2 h	reference: brain over plasma	brain/plasma ratio	0.3
O=C(O)COc1ccc(Br)cc1C=NNC(=O)Cc1ccccc1 (mixture of isomers)	–	–	mouse, PTZ-induced seizures	oral, 20 mg/kg, 0.5 h, added: PTZ 85 mg/kg i.p.	–	seizure protection	100%
O=C(N[C@@H](CC1CCCCC1)C(=O)N[C@@H](C[C@@H]1CCNC1=O)C(O)S(=O)(=O)O)OCc1cccc(Cl)c1 (some centres unmarked)	CRFK	cell growth or viability	–	36 h	–	CC50	138 µM
Cc1ccc(C(=O)N/N=C/c2cc(Br)ccc2OCC(=O)O)cc1	–	Racine scale 0-5	male mice, pilocarpine-induced seizures	oral, 20 mg/kg, 2 h after pilocarpine, unit not given, added: pilocarpine 300 mg/kg i.p.	higher = more severe	seizure severity	1.7 ± 0.48
CC(C)C[C@H](NC(=O)OCc1ccccc1)C(=O)N[C@@H](C[C@@H]1CCNC1=O)C(=O)C(=O)NC1CCCCC1	feline coronavirus	–	CRFK, FIPV-1146	–	reference: CC50 over EC50	therapeutic index	> 2140
Cc1ccc(Oc2ccc(-c3ccn4c(CC5CC5)nnc4c3C(F)(F)F)cc2F)c(C)n1	–	–	rat Sprague Dawley male, brain	subcutaneous, 10 mg/kg, 2 h	–	brain concentration	370 ng/g
CC[C@H](C)[C@@H]1NC(=O)[C@H](C(C)C)NC(=O)[C@H](Cc2ccccc2)NC(=O)[C@H](Cc2ccccc2)NC(=O)[C@@H]2CCCN2C(=O)[C@@H]2CCCN2C(=O)[C@H]([C@@H](C)CC)NC(=O)[C@H](CC(C)C)NC(=O)[C@H](CCSC)NC1=O	MCF7	LDH release	–	200 µg/mL, 24 h	–	cytotoxicity	19%
